Measured values from different studies.
Every numbered part comes from another study and shows a few of its results, in no order. Substitutions count along the parent as printed.
Sequence of UniProt P62256 (whole entry, looked up): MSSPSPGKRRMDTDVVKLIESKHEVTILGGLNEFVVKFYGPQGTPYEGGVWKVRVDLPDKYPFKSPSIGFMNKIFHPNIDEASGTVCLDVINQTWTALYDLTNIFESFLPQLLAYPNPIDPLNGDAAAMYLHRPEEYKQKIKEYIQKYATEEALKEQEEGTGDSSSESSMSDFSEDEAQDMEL
Sequence of UniProt Q15819 (whole entry, looked up): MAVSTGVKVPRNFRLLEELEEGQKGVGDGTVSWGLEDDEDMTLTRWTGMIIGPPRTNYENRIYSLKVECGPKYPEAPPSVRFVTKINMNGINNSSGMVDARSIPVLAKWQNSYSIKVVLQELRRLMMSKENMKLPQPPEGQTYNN
Sequence of UniProt Q13404 (whole entry, looked up): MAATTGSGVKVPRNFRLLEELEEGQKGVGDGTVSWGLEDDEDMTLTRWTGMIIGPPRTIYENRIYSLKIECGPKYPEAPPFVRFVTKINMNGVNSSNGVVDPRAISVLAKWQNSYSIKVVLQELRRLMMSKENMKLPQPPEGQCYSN
Sequence of UniProt Q8WVN8 (whole entry, looked up): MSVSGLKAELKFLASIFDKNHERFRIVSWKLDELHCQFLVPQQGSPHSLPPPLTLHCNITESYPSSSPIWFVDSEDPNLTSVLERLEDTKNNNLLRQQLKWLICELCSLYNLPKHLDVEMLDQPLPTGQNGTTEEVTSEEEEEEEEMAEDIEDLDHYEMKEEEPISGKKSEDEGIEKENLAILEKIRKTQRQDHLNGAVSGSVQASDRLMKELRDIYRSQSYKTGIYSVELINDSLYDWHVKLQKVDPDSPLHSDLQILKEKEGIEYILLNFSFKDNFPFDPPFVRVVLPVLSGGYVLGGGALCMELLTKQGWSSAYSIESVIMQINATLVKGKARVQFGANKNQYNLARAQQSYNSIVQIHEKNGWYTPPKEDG
Sequence of UniProt Q96LR5 (whole entry, looked up): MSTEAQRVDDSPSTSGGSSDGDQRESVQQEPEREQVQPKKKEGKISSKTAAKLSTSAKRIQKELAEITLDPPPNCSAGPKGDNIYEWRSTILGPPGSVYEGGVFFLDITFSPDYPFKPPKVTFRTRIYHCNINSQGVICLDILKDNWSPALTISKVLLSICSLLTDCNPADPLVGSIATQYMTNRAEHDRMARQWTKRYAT
Sequence of UniProt P49427 (whole entry, looked up): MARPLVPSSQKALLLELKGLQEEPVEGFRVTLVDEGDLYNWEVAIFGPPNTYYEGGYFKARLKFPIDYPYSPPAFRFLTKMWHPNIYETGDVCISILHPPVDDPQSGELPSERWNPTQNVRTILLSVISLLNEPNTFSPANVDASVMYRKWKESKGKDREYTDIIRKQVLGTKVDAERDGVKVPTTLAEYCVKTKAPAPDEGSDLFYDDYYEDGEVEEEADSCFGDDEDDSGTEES

Block 1
Target: ABI1, truncated, D143A, DHFR fusion (Arabidopsis thaliana)
Method: DHFR PCA, deep sequencing
Sample: yeast
Notes: methotrexate growth selection, single substitutions
With: (+)-ABA 0.032 µM
Relative to: wild-type fitted maximum
Reading: higher = stronger binding
Parent: PYL1, truncated, DHFR fusion (Arabidopsis thaliana); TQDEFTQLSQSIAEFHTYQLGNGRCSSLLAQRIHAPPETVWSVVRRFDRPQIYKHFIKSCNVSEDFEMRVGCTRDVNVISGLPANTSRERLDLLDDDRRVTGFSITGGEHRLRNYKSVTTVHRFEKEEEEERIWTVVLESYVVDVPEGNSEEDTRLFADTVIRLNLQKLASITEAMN; partner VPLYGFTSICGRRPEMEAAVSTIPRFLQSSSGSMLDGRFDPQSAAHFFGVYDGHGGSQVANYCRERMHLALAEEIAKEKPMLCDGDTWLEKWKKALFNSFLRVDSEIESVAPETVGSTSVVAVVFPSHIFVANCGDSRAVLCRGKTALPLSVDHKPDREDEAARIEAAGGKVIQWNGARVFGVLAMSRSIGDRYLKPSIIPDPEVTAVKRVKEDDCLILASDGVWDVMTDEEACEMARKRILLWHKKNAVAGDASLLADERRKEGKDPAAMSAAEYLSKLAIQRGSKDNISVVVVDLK
| Substitution | relative binding score |
| --- | --- |
| E152G | 2.11% |
| T39V | 49% |
| E151H | 17.2% |
| P146A | 29.4% |
| Y18T | -2.97% |
| A170S | -4.98% |
| N85G | 21.3% |
| I33N | -3.36% |

Block 2
Target: PABPC1L2, full length, GST fusion (mouse, UniProt A0ABA7IW68)
Method: RNAcompete
Molecule type: RNA
Sample: in vitro
Concentration: 20 nM
Notes: 7-mer, probes averaged, single round
Relative to: mean of 7-mers
Reading: higher = stronger binding
Target sequence (chain): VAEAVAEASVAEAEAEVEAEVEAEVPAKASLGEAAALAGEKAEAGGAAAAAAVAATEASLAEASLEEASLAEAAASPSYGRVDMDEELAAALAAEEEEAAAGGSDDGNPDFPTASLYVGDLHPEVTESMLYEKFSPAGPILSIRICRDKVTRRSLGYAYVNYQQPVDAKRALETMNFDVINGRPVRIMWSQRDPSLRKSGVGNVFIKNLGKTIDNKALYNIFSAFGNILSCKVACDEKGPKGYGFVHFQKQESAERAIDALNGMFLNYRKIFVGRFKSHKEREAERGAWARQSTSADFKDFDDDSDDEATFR
| Strand | 7-mer Z-score |
| --- | --- |
| AUGGGCU | 0.0714 |
| GAACACG | 0.0605 |
| UAAAUUU | 0.755 |
| GGGCACA | 0.378 |
| CGAUAUU | -0.246 |
| GUGGCGA | -0.012 |
| GCAUCCG | -0.0863 |
| CAAACAC | 1.29 |

Block 3
Sequence: B1 (TRIM52 RING domain)
Method: yeast two-hybrid
Sample: yeast
Notes: mostly zero background
Relative to: not given
Reading: higher = stronger interaction
B1: TRIM52 RING domain (UniProt Q96A61); chain PMQTLQEEAVCAICLDYFKDPVSISCGHNFCRGCVTQLWSKEDEEDQNEEEDEWEEEEDEEAV
| target | lacZ reporter activity |
| --- | --- |
| UBE2Q2 UBC core domain (UniProt Q8WVN8) | 0 |
| CDC34 UBC core domain (UniProt P49427) | 0 |
| UBE2E2 UBC core domain (UniProt Q96LR5) | 0 |
| UBE2V1 UBC core domain (UniProt Q13404) | 0 |
| UBE2H UBC core domain (UniProt P62256) | 0 |
| UBE2V2 UBC core domain (UniProt Q15819) | 0 |

Other studies, line by line
Parent: viral docking peptide; KGVKRKLFAEDSS; partner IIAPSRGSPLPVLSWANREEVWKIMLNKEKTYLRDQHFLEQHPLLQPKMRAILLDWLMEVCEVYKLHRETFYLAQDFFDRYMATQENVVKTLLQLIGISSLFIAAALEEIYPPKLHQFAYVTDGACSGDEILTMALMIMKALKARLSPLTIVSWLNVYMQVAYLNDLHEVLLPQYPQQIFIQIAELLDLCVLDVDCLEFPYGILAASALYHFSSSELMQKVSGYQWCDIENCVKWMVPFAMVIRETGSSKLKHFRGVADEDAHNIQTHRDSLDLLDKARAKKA
| Substitution | target | test | system | conditions | scale | endpoint | result |
| --- | --- | --- | --- | --- | --- | --- | --- |
| S12D | CCNE1, cyclin fold, Cln2 fusion (human) | yeast growth competition, sequencing | yeast | strong parent motif | relative to: not given, higher = stronger binding | normalised enrichment score | 7.42 |

Repeated from above (other studies, line by line):
| Substitution | target | test | system | conditions | scale | endpoint | result |
| --- | --- | --- | --- | --- | --- | --- | --- |
| S12D | CCNE1, cyclin fold, Cln2 fusion (human) | yeast growth competition, sequencing | yeast | strong parent motif | relative to: not given, higher = stronger binding | normalised enrichment score | 7.42 |
